Measurements gathered from unrelated publications.
Parts stem from different laboratories: compare values within a part only. Positions count from the first letter of the parent shown.

Series 1 — technique: RNA Bind-n-Seq; molecule type: RNA; sample: in vitro; tested at: 1 µM; setting: whole 134-nt RNA, ends assumed; together with: 150 mM KCl; baseline: input library; direction: higher = stronger binding
Target: Ras GTPase-activating protein-binding protein 1, C-terminal RGG region (G3BP1, Homo sapiens, UniProt Q13283)
Sequence of UniProt Q13283 (whole entry, looked up): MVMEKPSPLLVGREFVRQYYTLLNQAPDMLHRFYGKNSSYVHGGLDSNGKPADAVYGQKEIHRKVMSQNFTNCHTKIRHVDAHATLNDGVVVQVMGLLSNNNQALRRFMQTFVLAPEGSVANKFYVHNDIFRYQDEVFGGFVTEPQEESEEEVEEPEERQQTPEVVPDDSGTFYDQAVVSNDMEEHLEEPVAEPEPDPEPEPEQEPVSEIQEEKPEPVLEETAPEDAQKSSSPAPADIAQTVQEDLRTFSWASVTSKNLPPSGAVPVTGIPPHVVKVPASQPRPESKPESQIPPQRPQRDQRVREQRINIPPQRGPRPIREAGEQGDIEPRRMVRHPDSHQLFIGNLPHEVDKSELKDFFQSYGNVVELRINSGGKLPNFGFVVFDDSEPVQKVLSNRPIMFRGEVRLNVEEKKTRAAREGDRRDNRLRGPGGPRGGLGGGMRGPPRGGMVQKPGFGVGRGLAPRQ
All sequences stand within: GGGAGUUCUACAGUCCGACGAUC … UGGAAUUCUCGGGUGUCAAGG
Oligonucleotide | log2 enrichment
CUGUGCUACACAUCGUAUGUACCGAAUCGGGAAAAAAGGGGAAAAAAGGGGAAAAAAGGGGAAAGUAUUAUGUUACGCCGUUCGGAUCUG | -0.743
UCAAGUCCUGUGCUACACAUCGUAUGUACCGAAUCGGGAAAGGGUGGGUUUGGGAAAGUAUUAUGUUACGCCGUUCGGAUCUGCACUUCC | 2.03
CCUCAAGUCCUGUGCUACACAUCGUAUGUACCGAAUCGGGCGGCGGGCGGGGAAAGUAUUAUGUUACGCCGUUCGGAUCUGCACUUCCAG | 0.305
CACAGACAACACGCACCCACACAGACACAGAGAAAAGGGGUUGGGAUGGGGACAGGGUGCACAGCAGGGCGGGGUAGGACCCCAGCCCCU | -0.423
UCAAGUCCUGUGCUACACAUCGUAUGUACCGAAUCGGGAAAGGGAAAGGAAAGGAAAGUAUUAUGUUACGCCGUUCGGAUCUGCACUUCC | -1.54
AGUCCUGUGCUACACAUCGUAUGUACCGAAUCGGGUUUUUGGGUUUUUGGUUUUUGGAAAGUAUUAUGUUACGCCGUUCGGAUCUGCACU | -1.51
CACAGACAACACGCACCCACACAGACACAGAGGGAAGGGGUUGGGAUGGGGACAGGGUGCACAGCAGGGCGGGGUAGAACCCCAGCCCCU | -0.926
CUCAAGUCCUGUGCUACACAUCGUAUGUACCGAAUCGGGUGGGUUUGGGAGGGAAAGUAUUAUGUUACGCCGUUCGGAUCUGCACUUCCA | 1.69
CAAGUCCUGUGCUACACAUCGUAUGUACCGAAUCGGGGAAAGGAAAGGGGAAAGGGAAAGUAUUAUGUUACGCCGUUCGGAUCUGCACUU | -0.0505
UCCUCAAGUCCUGUGCUACACAUCGUAUGUACCGAAUCGGCGGCGGGGCGGAAAGUAUUAUGUUACGCCGUUCGGAUCUGCACUUCCAGC | -0.816
ACCAUGCAGGUGGGCAUCUUUGGGAAGUGGGGCAAGGGGGGGAUAGGGAGGAAAGUAACACUUUGGGAACAGGUGGUCCCAGGUCGUUUC | -1.12
AGUCCUGUGCUACACAUCGUAUGUACCGAAUCGGAAAAAGGAAAAAGGGGAAAAAGGGAAAGUAUUAUGUUACGCCGUUCGGAUCUGCAC | -1.62
CACAGACAACACGCACCCACACAGACACAGAGGGAAGGGGUUGGGAUGGGGACAGGGUGCACAGCAGGGCGGAAAAGGACCCCAGCCCCU | -0.265
UGGGAGGUGGAUUUUGUUUAUUUUUUUAGCUCAUUUCCAGGGGUGGGAAUUUCUUUUUAAUAUGUGUCAUGAAUAAAGUUGUUUUUGAAA | 3.76

Series 2 — technique: protein-binding microarray; molecule type: double-stranded DNA, one strand shown; sample: in vitro; tested at: not given; direction: higher = stronger binding
Target: Max dimerization protein 1, bHLH-zipper, MAX partner unstated (MXD1, Homo sapiens, UniProt Q05195, residues 56-136)
Setting: k-mer, scored over probes, only values ≥0.25
Residues (chain): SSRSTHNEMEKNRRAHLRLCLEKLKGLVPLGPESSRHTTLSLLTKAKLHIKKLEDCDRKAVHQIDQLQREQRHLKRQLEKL
Oligonucleotide | E-score
GCCCGCCC | 0.314
AAATAGCG | 0.257
GCTCCCCA | 0.268
CGCGTGTC | 0.437
CACGTGGG | 0.493
AACATGCC | 0.291
CGCCGCAC | 0.26
GCGTGTCA | 0.388
ATGCGGGC | 0.31
ACGTGTGC | 0.422
CACATGGA | 0.44
CCAGGCGG | 0.263
GAGCGTGC | 0.37
AAGGCGTG | 0.296
CCGTCCAC | 0.283
GGGGGGGA | 0.344
CACGAGTG | 0.386
ACACGAGC | 0.267
GCATGACA | 0.324
ACGTGTCA | 0.315
CACATGCG | 0.45
TGTGTCAA | 0.275

Series 3 — target: CCNE1, cyclin fold, Cln2 fusion (human); technique: yeast growth competition, sequencing; sample: yeast; setting: strong parent motif; baseline: not given; direction: higher = stronger binding
Starting sequence: GMNC docking peptide (human); KNAKRNLSSEFAN
Variant | normalised enrichment score
KNAKRFLSSEFAN [N6F] | 0.153
KNAKRNSSSEFAN [L7S] | 0.137
KNAKVNLSSEFAN [R5V] | -0.204
KNLKRNLSSEFAN [A3L] | 0.119
KNAKRNLTSEFAN [S8T] | 1.18
KNAKRNLNSEFAN [S8N] | 2.05
KNAKRNLSSFFAN [E10F] | 0.725
KNAKRNLSSEFSN [A12S] | 1.25
KNAGRNLSSEFAN [K4G] | 0.036
KNAKRNLSSEFIN [A12I] | 1.02
KNAKRNLSSNFAN [E10N] | 0.409
KCAKRNLSSEFAN [N2C] | 1.21
KNAARNLSSEFAN [K4A] | 0.34
KNAKRNLDSEFAN [S8D] | 1.08
KNAKRNLSSEKAN [F11K] | 0.0519
KNAKRNLSSEAAN [F11A] | 0.123

Series 4 — target: UBE2D1 UBC core domain (UniProt P51668); technique: yeast two-hybrid; sample: yeast; setting: mostly zero background; baseline: not given; direction: higher = stronger interaction
B1: RNF111 RING domain (UniProt Q6ZNA4); chain EGTEEDTEEKCTICLSILEEGEDVRRLPCMHLFHQVCVDQWLITNKKCPICRVDIEAQLPSE
B2: SH3RF2 RING domain (UniProt Q8TEC5); chain DDLTLLDLLECPVCFEKLDVTAKVLPCQHTFCKPCLQRVFKAHKELRCPECRTPVFSNIEAL
B3: NEURL1 RING domain (UniProt O76050); chain VTPGLGQWSDECTICYEHAVDTVIYTCGHMCLCYACGLRLKKALHACCPICRRPIKDIIKT
B4: TRAF5 RING domain (UniProt O00463); chain FVERLEERYKCAFCHSVLHNPHQTGCGHRFCQHCILSLRELNTVPICPVDKEVIKSQEVFK
B5: TRIM5 RING domain (UniProt Q9C035); chain ILVNVKEEVTCPICLELLTQPLSLDCGHSFCQACLTANHKKSMLDKGESSCPVCRISYQPENIRP
B6: TRIM13 RING domain (UniProt O60858); chain MELLEEDLTCPICCSLFDDPRVLPCSHNFCKKCLEGILEGSVRNSLWRPAPFKCPTCRKETSATGINS
B7: RNF38 RING domain (UniProt Q9H0F5); chain PNNHQSEQTLCVVCMCDFESRQLLRVLPCNHEFHAKCVDKWLKANRTCPICRADASEVHRDS
B8: TRIM5 RING domain (UniProt Q9C035); chain LREVKLSPEGQKVDHCARHGEKLLLFCQEDGKVICWLCERSQEHRGHHTFLTEEVAREYQVKL
B9: RC3H1 RING domain (UniProt Q5TC82); chain QAPQWTDFLSCPICTQTFDETIRKPISLGCGHTVCKMCLNKLHRKACPFDQTTINTDIELL
Residues (chain): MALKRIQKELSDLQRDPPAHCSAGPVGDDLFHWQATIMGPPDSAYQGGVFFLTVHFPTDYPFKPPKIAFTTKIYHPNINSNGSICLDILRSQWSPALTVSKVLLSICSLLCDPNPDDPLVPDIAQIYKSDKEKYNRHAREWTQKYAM
Molecule | lacZ reporter activity
B1 (RNF111 RING domain) | 14200
B2 (SH3RF2 RING domain) | 0
B3 (NEURL1 RING domain) | 0
QVDKAVFHMQSVKCLKCQEQKRAVLPCQHAALCELCAEGSECPICQPGRAHTLQS (UNK RING domain (UniProt Q9C0B0)) | 0
B4 (TRAF5 RING domain) | 0
B5 (TRIM5 RING domain) | 0
GAAPGPEAAECLVCSELALLVLFSPCQHRTVCEECARRMKKCIRCQVVVSKKLRPD (MIB2 RING domain (UniProt Q96AX9)) | 0
B6 (TRIM13 RING domain) | 0
B7 (RNF38 RING domain) | 0
B8 (TRIM5 RING domain) | 0
FQGDVDEDLICPICSGVLEEPVQAPHCEHAFCNACITQWFSQQQTCPVDRSVVTVAHLRP (RNF41 RING domain (UniProt Q9H4P4)) | 0
PAELEVQASECVVCLEREAQMIFLNCGHVCCCQQCCQPLRTCPLCRQDIAQRLRIY (LRSAM1 RING domain (UniProt Q6UWE0)) | 0
ASLPTSEEDLCPICYAHPISAVFQPCGHKSCKACINQHLMNNKDCFFCKTTIVSVEDWE (RNF123 RING domain (UniProt Q5XPI4)) | 0
DHGAVGQEMCCPICCSEYVKGEVATELPCHHYFHKPCVSIWLQKSGTCPVCRCMFPPPL (PJA1 RING domain (UniProt Q8NG27)) | 0
VEPSEENSKDCVVCQNGTVNWVLLPCRHTCLCDGCVKYFQQCPMCRQFVQESFALC (CGRRF1 RING domain (UniProt Q99675)) | 0
B9 (RC3H1 RING domain) | 0

Series 5 — technique: DHFR PCA, deep sequencing; sample: yeast; together with: (+)-ABA 1.4 µM; baseline: wild-type fitted maximum; direction: higher = stronger binding
Target: ABI1, truncated, D143A, DHFR fusion (Arabidopsis thaliana)
Setting: methotrexate growth selection, single substitutions
Starting sequence: PYL1, truncated, DHFR fusion (Arabidopsis thaliana); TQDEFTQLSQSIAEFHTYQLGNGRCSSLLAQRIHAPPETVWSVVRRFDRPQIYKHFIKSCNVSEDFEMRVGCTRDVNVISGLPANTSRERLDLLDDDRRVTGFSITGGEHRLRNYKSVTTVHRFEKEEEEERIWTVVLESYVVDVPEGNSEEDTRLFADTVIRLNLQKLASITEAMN; partner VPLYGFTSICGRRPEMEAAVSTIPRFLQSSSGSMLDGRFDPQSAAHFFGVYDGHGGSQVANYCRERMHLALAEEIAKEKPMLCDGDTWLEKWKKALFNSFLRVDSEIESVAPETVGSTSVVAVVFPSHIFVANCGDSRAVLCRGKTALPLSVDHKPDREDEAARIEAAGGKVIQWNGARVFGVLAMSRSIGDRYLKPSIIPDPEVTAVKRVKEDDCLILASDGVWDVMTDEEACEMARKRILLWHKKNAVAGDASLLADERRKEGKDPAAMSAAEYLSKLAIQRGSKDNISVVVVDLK
Variant | relative binding score [%]
Y18G | -7.84
R155N | -13.3
N77R | 73.4
G107Q | 4.1
S87N | 9.06
A35N | -20.1
L82S | 1.23
S9K | 77.7
T1V | 79
F15V | 2.76
L29K | 5.92
P83V | -2.48
R99H | 62.6
E139L | 7.86
E128R | 44.4
